Measured values gathered from unrelated publications.
Each numbered part is a random draw from the data of one study; scales do not carry over between parts.

Sample 1 — technique: protein-binding microarray; form: double-stranded DNA, one strand shown; matrix: in vitro; tested at: 2200 nM top; notes: 60-bp whole probe; with: salmon DNA 0.4 mg/ml; reference: random background probes; direction: higher = stronger binding; all sequences stand within: GCCTAGCAC … GTCTTGATTCGCTTGACGCTGCTG
Target: Interferon regulatory factor 7, full length, phosphomimetic (IRF7, Homo sapiens, UniProt Q92985, residues 1-503, S471D/S472D/S475D/S476D/S477D/S483D/S484D/S487D)
UniProt Q92985, sequence (whole entry, unmodified, looked up): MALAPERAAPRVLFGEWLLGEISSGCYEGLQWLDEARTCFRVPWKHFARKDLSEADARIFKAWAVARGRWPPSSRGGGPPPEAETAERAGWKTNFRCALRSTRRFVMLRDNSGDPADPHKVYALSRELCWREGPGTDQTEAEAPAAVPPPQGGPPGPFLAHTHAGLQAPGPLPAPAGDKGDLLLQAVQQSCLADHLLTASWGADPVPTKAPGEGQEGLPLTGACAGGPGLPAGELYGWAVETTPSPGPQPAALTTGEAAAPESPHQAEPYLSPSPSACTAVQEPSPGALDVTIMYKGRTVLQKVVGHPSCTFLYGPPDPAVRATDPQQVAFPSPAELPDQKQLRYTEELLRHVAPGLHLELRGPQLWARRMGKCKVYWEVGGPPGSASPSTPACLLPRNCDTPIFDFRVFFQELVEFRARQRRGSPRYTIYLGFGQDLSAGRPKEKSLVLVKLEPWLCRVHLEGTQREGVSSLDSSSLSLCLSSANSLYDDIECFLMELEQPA
For `TCATTACTAAAATTTCATACTGTGCTA`, “fitted relative affinity” read 0.373 z-score.
`AGAGCCATCAATATCTGCAAGTGCTAG`: “fitted relative affinity” -0.484 z-score.
Under “fitted relative affinity”, `GACGGTATCCTTCTCCTCACGTGCTAG` is recorded as 1.18 z-score.
`TTGGGTATCGGTCTCGGTTAGTGCTAG` — result for “fitted relative affinity”: 1.03 z-score.
`TCACCTTTGTTTTTTTCACTGTGCTAG` — result for “fitted relative affinity”: 2.05 z-score.
`TTCAGTTTCACTGCTGCCCTGTGCTAG`: “fitted relative affinity” 3.03 z-score.
`TTAGATATCAGTTACGATTAGTGCTAG` — result for “fitted relative affinity”: 0.427 z-score.
For `TATCATTTAATTATATGGCTGTGCTAG`, “fitted relative affinity” read 0.362 z-score.
For `GACGGGATCGACACTGGGGACGTGCTA`, “fitted relative affinity” read -0.576 z-score.
Under “fitted relative affinity”, `TCAATTTTGTGTTTTCAACTGTGCTAG` is recorded as 1.73 z-score.
For `TCGGTTTCCAAATTGTCTCTGTGCTAG`, “fitted relative affinity” read 6.81 z-score.
Under “fitted relative affinity”, `CTAGATTCCAGTTTCGATTAGTGCTAG` is recorded as 6.92 z-score.
`TTAGGTTTCGGTCACGGTTAGTGCTAG`: “fitted relative affinity” 3.57 z-score.
`GACGGTATCGGTAGCGGGACGTGCTAG`: “fitted relative affinity” -0.233 z-score.
`TTAGATATCAGTGTCGATTAGTGCTAG`: “fitted relative affinity” -0.0393 z-score.
Under “fitted relative affinity”, `GACGATTTTAGACTGGAGACGTGCTAG` is recorded as 0.00559 z-score.
For `TGTAGTGTGTGTCTGATTATGTGCTAG`, “fitted relative affinity” read 0.581 z-score.
`ATAGGTTCCGGTTTCGGTTAGTGCTAG` — result for “fitted relative affinity”: 8.89 z-score.
`TCATGATTGAATCTCCCACTGTGCTAG`: “fitted relative affinity” 0.827 z-score.

Sample 2 — technique: RNA Bind-n-Seq; form: RNA; matrix: in vitro; tested at: not given; reference: input RNA pool; direction: higher = stronger binding
Target: RING finger protein unkempt homolog, zinc fingers 1-6, GST-SBP tag (UNK, Homo sapiens, UniProt Q9C0B0, residues 30-357)
UniProt Q9C0B0, sequence (30-357, looked up): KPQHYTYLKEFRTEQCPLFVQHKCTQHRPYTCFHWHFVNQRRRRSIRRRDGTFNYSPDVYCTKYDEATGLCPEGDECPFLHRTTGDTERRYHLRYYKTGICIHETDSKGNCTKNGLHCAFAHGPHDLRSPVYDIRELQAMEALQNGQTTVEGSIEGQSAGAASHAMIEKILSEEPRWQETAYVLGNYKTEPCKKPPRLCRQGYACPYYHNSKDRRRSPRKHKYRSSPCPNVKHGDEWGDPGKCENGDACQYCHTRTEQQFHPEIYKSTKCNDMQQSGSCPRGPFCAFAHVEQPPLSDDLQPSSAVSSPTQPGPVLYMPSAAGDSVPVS
Notes: RNA with constant flanks, human-mouse chimeric sites, ends assumed
`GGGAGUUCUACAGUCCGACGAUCUCUUUAAAAAAAAAAUUACCUUUUCUGACAGUGCUUUCCCUCCCAUAGAUCCACGUUCACACUAGAAGAGCAAAGGCUUUGCACGGAGCUCAAACAUCUGAUGAAGAAAGAUUUCUGAGACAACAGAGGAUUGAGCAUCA` has a bound/input enrichment of 1.56 ratio.
`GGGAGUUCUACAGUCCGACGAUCACACAAUAUGAGACCAACAGCAUGGACUUCAAAGUUGGGGCAGAUGGGACAGUCUUCGCCACCCGGGAGCUGCAGGUCCCCUCCGAGCAGGUGGCCUUUACCGUCACUGCAUGGGACAGCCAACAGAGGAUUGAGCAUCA` has a bound/input enrichment of 0.146 ratio.
For `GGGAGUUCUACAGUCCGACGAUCAAGCAACGCAAACUUGAAACAAUUCGUUAUCUUGCAGCCUCAGUGUUCACUUGCUUGGCGAUAGCAUUGGGGUUUUAUAUAGAUUCUAAGGAGAACUGACGAUGAUGCUGCCGCUGCUGCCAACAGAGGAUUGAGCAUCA`, the bound/input enrichment was 0.193 ratio.
`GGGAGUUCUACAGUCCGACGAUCACACAAUAUGAGACCAACAGCUUGGACUUCAAAGUUGGGGCAGAUGGGACAGUCUUCGCCACUAGGGAGCUGCAGGUCCCCUCCGAGCAGGUGGCGUUCACGGUGACUGCAUGGGACAGCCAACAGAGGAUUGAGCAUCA` has a bound/input enrichment of 0.234 ratio.
`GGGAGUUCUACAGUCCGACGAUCGGACAUCUGUCAAAUUGUUAUGUUCCUAAAAACGUAGUGAACACUCUUCAUAUACUAAUCUGCUUGUACAUCUGUAUGAUAGAGAAAUGUAAAUAUGUUAAUCCAAGCAAUGUGUCACUUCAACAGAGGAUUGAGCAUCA` gave a bound/input enrichment of 0.327 ratio.
With `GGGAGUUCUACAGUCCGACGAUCACUCUUGACUCUUUCCAUUCUCGUCCCUUCCCUCUUGAUAUUCAAGGCCAUGAAUCCCAAAAUAACAGUCUUAGUGGCUAGCACCCAAACAGAGGUGGAAUAAAUCCAAACUGACAACUCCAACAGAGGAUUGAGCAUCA` the bound/input enrichment was 0.607 ratio.
The bound/input enrichment of `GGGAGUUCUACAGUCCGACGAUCUCUGGUCACACUCGUGUAUAUGGUGUGUGCUUUGUGGAUACUUCACUGGGCAAGUUUUUCAUCGGCCAGUUUUCGGAUGACCGCCACUGUUCCAGAUUUAGGACGCUAGUGGCUCACUAUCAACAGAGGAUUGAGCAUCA` is reported as 0.228 ratio.
For `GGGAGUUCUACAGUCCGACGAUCCUGAGGAUACCACUGAAGAGACCUUAAAAGGAGUCAUUUGACGGCUCGUUCGUGCAAGAAUAGUCACUGAUCGGGAAACUGGUUCUUCCAAAGGGUUUGGUUUUGUAGACUUUAAUAGUGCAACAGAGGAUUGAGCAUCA`, the bound/input enrichment was 0.811 ratio.

Sample 3 — technique: RNA Bind-n-Seq; form: RNA; matrix: in vitro; tested at: 200 nM; notes: whole 134-nt RNA, ends assumed; with: 150 mM KCl; reference: input library; direction: higher = stronger binding
Target: Fragile X messenger ribonucleoprotein 1, C-terminal low-complexity region (Fmr1, Mus musculus, UniProt P35922)
`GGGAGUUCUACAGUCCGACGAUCAAGUCCUGUGCUACACAUCGUAUGUACCGAAUCGUGUGUGUGUGUGUGUGUGUGUGAAAGUAUUAUGUUACGCCGUUCGGAUCUGCACUUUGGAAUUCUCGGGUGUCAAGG` has a log2 enrichment of 0.474.
`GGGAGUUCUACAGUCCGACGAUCUCCUCAAGUCCUGUGCUACACAUCGUAUGUACCGAAUCGGAGGAGGGAGGGAAAGUAUUAUGUUACGCCGUUCGGAUCUGCACUUCCAGCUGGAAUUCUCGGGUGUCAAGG` gave a log2 enrichment of -0.249.
With `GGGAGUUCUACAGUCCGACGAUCUGGGAGCUGGAUUUUGUUUAUUUUUUUAGCUCAUUUCCAGGGGUGGGAAUUUUUUUUUAAUAUGUGUCAUGAAUAAAGUUGUUUUUGAAAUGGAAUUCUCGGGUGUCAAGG` the log2 enrichment was -0.641.
`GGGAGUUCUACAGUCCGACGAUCCCUGUGCUACACAUCGUAUGUACCGAAUCGGUUUUUUGGGGUUUUUUGGGGUUUUUUGGGGAAAGUAUUAUGUUACGCCGUUCGGAUCUGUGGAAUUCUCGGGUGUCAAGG` gave a log2 enrichment of -0.638.
For `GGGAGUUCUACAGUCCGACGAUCCUGUGCUACACAUCGUAUGUACCGAAUCGGGGAAAGGGGAAAAAAAGGGGAAAAAAAGGGGAAAGUAUUAUGUUACGCCGUUCGGAUCUGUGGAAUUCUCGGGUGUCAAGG`, the log2 enrichment was -0.395.
`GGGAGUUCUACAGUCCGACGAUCUGUGCUACACAUCGUAUGUACCGAAUCGGGGUUUUUUUGGGUUUUUUUGGGGUUUUUUUGGGAAAGUAUUAUGUUACGCCGUUCGGAUCUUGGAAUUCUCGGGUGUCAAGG` gave a log2 enrichment of 0.0141.
The log2 enrichment of `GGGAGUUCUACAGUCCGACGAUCGUCCUGUGCUACACAUCGUAUGUACCGAAUCGGAAAAAGGAAAAAGGGGAAAAAGGGGAAAGUAUUAUGUUACGCCGUUCGGAUCUGCACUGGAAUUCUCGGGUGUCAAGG` is reported as -0.107.
For `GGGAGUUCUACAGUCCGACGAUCGUCCUGUGCUACACAUCGUAUGUACCGAAUCAAACCCCCAAAUUUUUUUAAACCCAAAAAAGUAUUAUGUUACGCCGUUCGGAUCUGCACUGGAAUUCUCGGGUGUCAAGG`, the log2 enrichment was 0.0945.
`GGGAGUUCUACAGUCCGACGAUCUGGCUGCAGGCGCACCCCGGCAGGAUUUUGCCUCCGCUGUCGCCCCCGCAGCACCGCUACUCGGAGGGCGAGCGGACCUCCCUGGAGAAGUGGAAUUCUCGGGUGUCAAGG` has a log2 enrichment of -0.615.

Sample 4 — technique: RNA Bind-n-Seq; form: RNA; matrix: in vitro; tested at: 365 nM; reference: no-protein control; direction: higher = stronger binding
Target: RNA binding protein fox-1 homolog 2, RRM domain, GST-SBP tag (RBFOX2, Homo sapiens, UniProt O43251-10, residues 100-194)
Notes: natural RNA segment, single round, ends assumed
Construct (chain): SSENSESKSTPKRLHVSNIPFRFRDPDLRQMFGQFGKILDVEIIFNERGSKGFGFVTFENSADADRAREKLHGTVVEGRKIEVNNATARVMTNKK
For `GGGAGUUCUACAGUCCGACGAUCCUCUUGUUCGCAACUCAGAUCACACUCCAAUUGUGGUGACAGACUCUUCCAUAUCAGGCUGGUUUUGCUUUGUUCCGCCUUUACACAAACUCAAGUGGAGCUGAACUUUCUGGAAUUCUCGGGUGCCAA`, “RBNS enrichment (R)” read 0.418.
`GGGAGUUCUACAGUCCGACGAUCCAUAUUUGAAUUGGCCUGAACAGAUGUAAAUCGGGAAGGAUGGGAAAAACUGCAGUCAUCAACAAUGAUUAAUCAGCUGUUGCAGGCAGUGUCUUAAGGAGACUGGUAGGUGGAAUUCUCGGGUGCCAA` — result for “RBNS enrichment (R)”: 0.466.
Under “RBNS enrichment (R)”, `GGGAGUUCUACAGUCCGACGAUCAGAGGGCAAAAAGUGGCCUGGGCUCUGUUGGUGUGCGUGUUCCGUGGCGGAGAGAAGAAAAUGGGAAAGACAUCUCACUGGUGCUUUUCUCUUUUGUUUUAGUGCCCCCCUGGAAUUCUCGGGUGCCAA` is recorded as 0.414.
Under “RBNS enrichment (R)”, `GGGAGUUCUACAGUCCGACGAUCUUCUUUCUCUAUGUUCCAAAACCAUUCCAUUUCAAAGCACUUUUGGUCAGCUAGCUGGAGGCAGUGUUGCUGGUGUGUGUUGGGGGGAGGGGUUCUAAUGGAAUGGAUGGUGGAAUUCUCGGGUGCCAA` is recorded as 0.425.
`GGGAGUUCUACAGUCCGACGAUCAAAUGUGUUAGUCUUUGAAUGGAAAACAACUAUUUUCUCAUCAUUGGGUCAAUAUUGACUGAUCAGUAGUAGGUCUUUUACCAUUCUGGACAUAAGUCUAGGUGUAGAAAUGGAAUUCUCGGGUGCCAA` — result for “RBNS enrichment (R)”: 0.505.
`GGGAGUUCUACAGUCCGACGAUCGUUAUCAGGGAAGCUUGCUCUGCCAGGCUGCUCCAGGAUGCCAGCUUGUCUCUGACUCGGUUGAGGUCCAUGCUCUGACUUUCUGCACCCUCGUGCUAGGCGAUUCGUGUUGGAAUUCUCGGGUGCCAA` — result for “RBNS enrichment (R)”: 0.52.
`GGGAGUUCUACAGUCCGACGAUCGUUAAUGGCAGGCAGGCCCAUCUGGCUAUCCCGCAGUUGGGGAAACCCUUGCAAAGUAAACAGCUUUCCCAGGUUCCAAGGCCAGUUUUCACUGCUAAGGACCGGAAGGAUGGAAUUCUCGGGUGCCAA`: “RBNS enrichment (R)” 0.324.
Under “RBNS enrichment (R)”, `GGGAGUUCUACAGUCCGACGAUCUUACCCUUUUAGCAGAUAAUUCGGAGCAUUAUUUAUUUAAAGAAUUUAUAAUUCUACAGUACCUAUUAAUGCUGUACUUCCAGGAUGCUCAUGCCCAUUUUAUUCUUAUAUGGAAUUCUCGGGUGCCAA` is recorded as 0.435.

For quick reference, copied from above (sample 1):
`GACGGTATCGGTAGCGGGACGTGCTAG`: “fitted relative affinity” -0.233 z-score.
`TTAGATATCAGTGTCGATTAGTGCTAG`: “fitted relative affinity” -0.0393 z-score.
Under “fitted relative affinity”, `GACGATTTTAGACTGGAGACGTGCTAG` is recorded as 0.00559 z-score.
For `TGTAGTGTGTGTCTGATTATGTGCTAG`, “fitted relative affinity” read 0.581 z-score.
